Assay results gathered from unrelated publications.
Each line is one published result; not all experiments were run side by side. Numbers after ± are the reported error.
GBA2: Beta-glucosidase (GBA2, Homo sapiens, UniProt Q9HCG7)
Sequence of UniProt Q9HCG7 (whole entry, looked up): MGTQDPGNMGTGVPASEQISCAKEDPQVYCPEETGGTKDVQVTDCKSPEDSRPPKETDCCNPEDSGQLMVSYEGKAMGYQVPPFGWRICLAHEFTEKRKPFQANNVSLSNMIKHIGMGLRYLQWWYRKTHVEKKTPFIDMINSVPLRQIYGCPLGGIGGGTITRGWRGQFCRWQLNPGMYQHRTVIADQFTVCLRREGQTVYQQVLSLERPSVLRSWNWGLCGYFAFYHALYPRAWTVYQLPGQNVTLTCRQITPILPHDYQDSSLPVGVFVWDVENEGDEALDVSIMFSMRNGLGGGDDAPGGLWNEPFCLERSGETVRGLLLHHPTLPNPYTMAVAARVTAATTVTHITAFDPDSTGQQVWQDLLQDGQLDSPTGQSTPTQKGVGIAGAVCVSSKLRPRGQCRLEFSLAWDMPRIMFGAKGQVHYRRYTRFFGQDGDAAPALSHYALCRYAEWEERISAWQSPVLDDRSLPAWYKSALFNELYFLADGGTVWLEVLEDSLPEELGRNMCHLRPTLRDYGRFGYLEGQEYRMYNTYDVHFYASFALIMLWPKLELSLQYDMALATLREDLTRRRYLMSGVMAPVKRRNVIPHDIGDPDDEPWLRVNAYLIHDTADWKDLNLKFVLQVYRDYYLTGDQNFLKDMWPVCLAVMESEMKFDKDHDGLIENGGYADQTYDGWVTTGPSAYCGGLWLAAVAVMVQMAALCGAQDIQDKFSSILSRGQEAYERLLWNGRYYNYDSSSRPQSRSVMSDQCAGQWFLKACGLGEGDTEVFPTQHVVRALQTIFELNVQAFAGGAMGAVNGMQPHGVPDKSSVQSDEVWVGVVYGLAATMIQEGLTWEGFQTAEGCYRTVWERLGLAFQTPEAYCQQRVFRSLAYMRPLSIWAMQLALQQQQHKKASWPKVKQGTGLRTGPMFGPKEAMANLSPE

`COc1cc(O)ccc1CCC(c1ccc(O)cc1)c1cc2c(c(C)c1O)OC(c1ccc(O)cc1)CC2` (mixture of isomers) has a 20-OH-LTB4 level of 147 ± 75 pg/mL (human blood; 10 µM, together with: A23187).
For `O=C(N/N=C/c1ccc2c(ccc[n+]2Cc2ccccc2)c1)c1ccc2ccc(C(=O)N/N=C/c3ccc4c(ccc[n+]4Cc4ccccc4)c3)nc2n1`, the ΔTm was 15.7 ± 1.4 °C (myc22 MYC G4-DNA parallel; FRET melting; 1 µM, K1 buffer, DNA 0.2 µM).
Under “log2 fold change”, `COC1CN([C@H]2CC[C@H]([C@@]3(C)Oc4c(Cl)cc(C(=O)NCc5c(SC)cc(C)[nH]c5=O)c(C)c4O3)CC2)C1` is recorded as 1.15 (RNA-seq, measured: KIF3C; human, whole blood; dose not given, 24 h; relative to: pretreatment baseline).
For `CC[n+]1cccc2cc(/C=N/NC(=O)c3cccc(C(=O)N/N=C/c4ccc5c(ccc[n+]5CC)c4)n3)ccc21`, the ΔTm was 17.5 ± 0.5 °C (myc22 MYC G4-DNA parallel; FRET melting; 1 µM, K1 buffer, DNA 0.2 µM, together with: ds26 10 µM).
`CNS(=O)(=O)Nc1nccc(Cc2c(C)c3ccc(Oc4ncccc4F)cc3oc2=O)c1F` has an IC50 of over 1000 nM (LN-18; cell viability; 7 days).
`OC[C@@H]1[C@@H](O)[C@H](O)[C@@H](O)CN1CC(F)(F)CCCOCc1ccc(-c2ccccc2)cc1` has a selectivity ratio of 125 (GBA2; inhibitor, 4MU-β-D-glucopyranoside; HEK293T homogenates overexpressing GBA2; relative to: GCS IC50 over GBA2 IC50).
Under “log2 fold change”, `Cc1ncsc1-c1ccc(C(C)NC(=O)C2CC(O)CN2C(=O)C(NC(=O)CCCCCCCCCCN2CCCC(Nc3ncc(Cl)c(Nc4ccccc4S(=O)(=O)C(C)C)n3)C2)C(C)(C)C)cc1` (stereo not drawn) is recorded as -1.03 (22Rv1; RNA-seq, measured: TWNK mRNA; concentration not given; relative to: DMSO).
For `C[n+]1cc(/C=N/NC(=O)C(=O)N/N=C/c2cc3ccccc3[n+](C)c2)cc2ccccc21`, the ΔTm was 3.4 ± 0.5 °C (myc22 MYC G4-DNA parallel; FRET melting; 1 µM, K1 buffer, DNA 0.2 µM).
`OC[C@@H]1[C@@H](O)[C@H](O)[C@@H](O)CN1CCCCCOCc1ccc(-c2ccccc2)cn1` gave a selectivity ratio of 67 (GBA2; inhibitor, 4MU-β-D-glucopyranoside; HEK293T homogenates overexpressing GBA2; relative to: GCS IC50 over GBA2 IC50).
For `C=CC(=O)Nc1cccc(Cn2ncc3cnc(Nc4cnn(CCOC)c4)nc32)c1`, “percent of control” read 100% (HCK human; binding, KINOMEscan; 100 nM; lower = stronger binding).
`CN1CCCNC(=O)c2cccc(c2)C(=O)NCCCN(C)CCCNc2cccc3c2C(=O)c2cccc(c2C3=O)NCCC1`: “log2 fold change” -2.84 (SAS; RNA-Seq, measured: ZFYVE27 mRNA; 5 µM, 6 h; relative to: untreated cells).
The remaining binding of `Nc1ncc(-c2cc(-c3cnn(CC(F)(F)F)c3)ncc2F)nc1C(=O)NC1CNCC(F)C1` (stereo not drawn) is reported as 93% (CDK4-cyclinD3; KINOMEscan competition binding; 1 µM; relative to: DMSO control).
